# Published values gathered from unrelated publications.
# Every numbered part comes from another study and shows a few of its results, in no order. Changes are numbered by the printed parent chain.

# Sample 1 — target: FOSL1, bZIP domain (human); method: DHFR protein complementation; matrix: yeast; baseline: wild-type JUN-FOS pair; reading: higher = stronger binding
# Setting: single substitutions, most at no-binding floor
# Starting sequence: JUN, bZIP domain (human); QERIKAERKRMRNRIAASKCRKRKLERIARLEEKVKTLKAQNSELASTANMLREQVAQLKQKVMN; partner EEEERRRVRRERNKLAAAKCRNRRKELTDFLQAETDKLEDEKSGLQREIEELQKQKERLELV
Substitution,binding fitness [natural log]
K39R,-0.241
S47T,-0.397
S43A,-0.202
E54R,-0.561
R30Q,-0.161
E44P,-1.36
L38Y,-1.38
V35M,-0.382

# Sample 2 — method: RNA Bind-n-Seq; form: RNA; matrix: in vitro; tested at: 20 nM; setting: 6-mer, flanks averaged, single round; added: 150 mM KCl; baseline: input library; reading: higher = stronger binding
# Target: TAR DNA-binding protein 43, full length, His tag (TARDBP, Homo sapiens, UniProt Q13148, residues 1-414)
Oligonucleotide,6-mer enrichment (R)
UAAGUU,0.597
GGACAA,1.12
GCCAGU,0.887
GCUGUG,1.36
UAAGGA,0.844
UGGACU,0.816
CGAGGC,1.46
CGACUC,0.61

# Further values, each from its own experiment
# FKH1 DNA-binding domain: Fork head protein homolog 1, DNA-binding domain (FKH1, Saccharomyces cerevisiae, UniProt P40466, residues 243-484)
# Sequence of UniProt P40466 (243-484, looked up): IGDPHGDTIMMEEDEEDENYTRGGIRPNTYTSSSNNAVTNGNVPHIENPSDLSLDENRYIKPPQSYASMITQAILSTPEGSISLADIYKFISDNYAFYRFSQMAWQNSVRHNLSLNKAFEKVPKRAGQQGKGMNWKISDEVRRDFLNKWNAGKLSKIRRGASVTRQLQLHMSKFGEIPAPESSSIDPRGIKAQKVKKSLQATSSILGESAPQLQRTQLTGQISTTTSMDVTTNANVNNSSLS
# P1: viral docking peptide; KKAKRRLFTISDS; partner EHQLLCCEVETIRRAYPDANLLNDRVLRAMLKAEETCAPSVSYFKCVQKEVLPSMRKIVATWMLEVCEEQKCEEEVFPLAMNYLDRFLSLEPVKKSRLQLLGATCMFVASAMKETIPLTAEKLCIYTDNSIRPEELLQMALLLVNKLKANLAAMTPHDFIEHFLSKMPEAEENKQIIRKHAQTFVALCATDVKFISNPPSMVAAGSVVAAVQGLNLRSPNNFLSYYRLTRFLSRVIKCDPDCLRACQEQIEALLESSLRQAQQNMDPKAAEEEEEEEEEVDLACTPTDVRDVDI
Substance,target,assay,test system,conditions,scale,quantity,result
TACAACA,FKH1 DNA-binding domain,SELEX-seq,"double-stranded DNA, one strand shown, in vitro","not given, 7-bp core, flanks averaged","baseline: best-binding core, lower = stronger binding",relative binding free energy,2.22 ddG/RT
P1 F8A,"CCND1, cyclin fold, Cln2 fusion (human)","yeast growth competition, sequencing",yeast,weak parent motif,"baseline: not given, higher = stronger binding",normalised enrichment score,-0.21
AGAAACA,FKH1 DNA-binding domain,SELEX-seq,"double-stranded DNA, one strand shown, in vitro","not given, 7-bp core, flanks averaged","baseline: best-binding core, lower = stronger binding",relative binding free energy,2.58 ddG/RT

# Excerpt of the above (sample 1):
Substitution,binding fitness [natural log]
E54R,-0.561
